Measured values collected from several papers.
± marks the error that the study gave.
U2AF2: U2AF2 148-342 (Homo sapiens, UniProt P26368)
Chain of UniProt P26368 (whole entry, looked up): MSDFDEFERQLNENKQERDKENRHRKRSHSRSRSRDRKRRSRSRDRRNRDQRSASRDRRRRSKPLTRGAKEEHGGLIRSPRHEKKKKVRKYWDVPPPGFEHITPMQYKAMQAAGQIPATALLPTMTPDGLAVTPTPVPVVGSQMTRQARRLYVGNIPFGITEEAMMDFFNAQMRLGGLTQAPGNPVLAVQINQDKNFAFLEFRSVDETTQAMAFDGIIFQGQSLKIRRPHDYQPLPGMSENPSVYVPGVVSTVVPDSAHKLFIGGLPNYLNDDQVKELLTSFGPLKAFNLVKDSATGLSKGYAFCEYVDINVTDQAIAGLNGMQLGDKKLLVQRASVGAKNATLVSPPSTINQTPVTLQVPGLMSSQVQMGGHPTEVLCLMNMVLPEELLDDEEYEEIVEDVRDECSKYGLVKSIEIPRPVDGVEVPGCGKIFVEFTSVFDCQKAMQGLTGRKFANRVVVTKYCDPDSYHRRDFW
CDK5 with p25: Cyclin-dependent kinase 5, with p25 (CDK5, Homo sapiens, UniProt Q00535)
Chain of UniProt Q00535 (whole entry, looked up): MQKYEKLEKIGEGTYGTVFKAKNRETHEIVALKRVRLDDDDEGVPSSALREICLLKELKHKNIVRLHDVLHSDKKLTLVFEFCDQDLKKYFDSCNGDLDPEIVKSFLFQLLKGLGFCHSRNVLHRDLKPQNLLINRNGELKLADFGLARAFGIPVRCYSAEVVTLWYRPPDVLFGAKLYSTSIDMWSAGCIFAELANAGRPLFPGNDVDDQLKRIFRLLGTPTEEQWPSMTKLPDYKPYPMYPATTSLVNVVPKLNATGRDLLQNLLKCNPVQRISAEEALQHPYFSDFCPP
B1: human AMPD2; sequence looked up; chain MASYPSGSGKPKAKYPFKKRASLQASTAAPEARGGLGAPPLQSARSLPGPAPCLKHFPLDLRTSMDGKCKEIAEELFTRSLAESELRSAPYEFPEESPIEQLEERRQRLERQISQDVKLEPDILLRAKQDFLKTDSDSDLQLYKEQGEGQGDRSLRERDVLEREFQRVTISGEEKCGVPFTDLLDAAKSVVRALFIREKYMALSLQSFCPTTRRYLQQLAEKPLETRTYEQGPDTPVSADAPVHPPALEQHPYEHCEPSTMPGDLGLGLRMVRGVVHVYTRREPDEHCSEVELPYPDLQEFVADVNVLMALIINGPIKSFCYRRLQYLSSKFQMHVLLNEMKELAAQKKVPHRDFYNIRKVDTHIHASSCMNQKHLLRFIKRAMKRHLEEIVHVEQGREQTLREVFESMNLTAYDLSVDTLDVHADRNTFHRFDKFNAKYNPIGESVLREIFIKTDNRVSGKYFAHIIKEVMSDLEESKYQNAELRLSIYGRSRDEWDKLARWAVMHRVHSPNVRWLVQVPRLFDVYRTKGQLANFQEMLENIFLPLFEATVHPASHPELHLFLEHVDGFDSVDDESKPENHVFNLESPLPEAWVEEDNPPYAYYLYYTFANMAMLNHLRRQRGFHTFVLRPHCGEAGPIHHLVSAFMLAENISHGLLLRKAPVLQYLYYLAQIGIAMSPLSNNSLFLSYHRNPLPEYLSRGLMVSLSTDDPLQFHFTKEPLMEEYSIATQVWKLSSCDMCELARNSVLMSGFSHKVKSHWLGPNYTKEGPEGNDIRRTNVPDIRVGYRYETLCQELALITQAVQSEMLETIPEEAGITMSPGPQ
B2: adiponectin; sequence looked up; chain ETTTQGPGVLLPLPKGACTGWMAGIPGHPGHNGAPGRDGRDGTPGEKGEKGDPGLIGPKGDIGETGVPGAEGPRGFPGIQGRKGEPGEGAYVYRSAFSVGLETYVTIPNMPIRFTKIFYNQQNHYDGSTGKFHCNIPGLYYFAYHITVYMKDVKVSLFKKDKAMLFTYDQYQENNVDQASGSVLLHLEVGDQVWLQVYGEGERNGLYADNDNDSTFTGFLLYHDTN
B3: human hypoxia up-regulated protein 1; sequence looked up; chain LAVMSVDLGSESMKVAIVKPGVPMEIVLNKESRRKTPVIVTLKENERFFGDSAASMAIKNPKATLRYFQHLLGKQADNPHVALYQARFPEHELTFDPQRQTVHFQISSQLQFSPEEVLGMVLNYSRSLAEDFAEQPIKDAVITVPVFFNQAERRAVLQAARMAGLKVLQLINDNTATALSYGVFRRKDINTTAQNIMFYDMGSGSTVCTIVTYQMVKTKEAGMQPQLQIRGVGFDRTLGGLEMELRLRERLAGLFNEQRKGQRAKDVRENPRAMAKLLREANRLKTVLSANADHMAQIEGLMDDVDFKAKVTRVEFEELCADLFERVPGPVQQALQSAEMSLDEIEQVILVGGATRVPRVQEVLLKAVGKEELGKNINADEAAAMGAVYQAAALSKAFKVKPFVVRDAVVYPILVEFTREVEEEPGIHSLKHNKRVLFSRMGPYPQRKVITFNRYSHDFNFHINYGDLGFLGPEDLRVFGSQNLTTVKLKGVGDSFKKYPDYESKGIKAHFNLDESGVLSLDRVESVFETLVEDSAEEESTLTKLGNTISSLFGGGTTPDAKENGTDTVQEEEESPAEGSKDEPGEQVELKEEAEAPVEDGSQPPPPEPKGDATPEGEKATEKENGDKSEAQKPSEKAEAGPEGVAPAPEGEKKQKPARKRRMVEEIGVELVVLDLPDLPEDKLAQSVQKLQDLTLRDLEKQEREKAANSLEAFIFETQDKLYQPEYQEVSTEEQREEISGKLSAASTWLEDEGVGATTVMLKEKLAELRKLCQGLFFRVEERKKWPERLSALDNLLNHSSMFLKGARLIPEMDQIFTEVEMTTLEKVINETWAWKNATLAEQAKLPATEKPVLLSKDIEAKMMALDREVQYLLNKAKFTKPRPRPKDKNGTRAEPPLNASASDQGEKVIPPAGQTEDAEPISEPEKVETGSEPGDTEPLELGGPGAEPEQKEQSTGQKRPLKNDEL
B4: POF1B (human); sequence looked up; chain MSSSYWSETSSSSCGTQQLPEVLQCQPQHYHCYHQSSQAQQPPEKNVVYERVRTYSGPMNKVVQALDPFNSREVLSPLKTTSSYQNLVWSDHSQELHSPTLKISTCAPSTLHITQNTEQELHSPTVKLTTYPQTTIRKYVVQNPEQEPLSQFLRGSHFFPGNNVIYEKTIRKVEKLNTDQGCHPQAQCHHHIIQQPQVIHSAHWQQPDSSQQIQAITGNNPISTHIGNELCHSGSSQICEQVIIQDDGPEKLDPRYFGELLADLSRKNTDLYHCLLEHLQRIGGSKQDFESTDESEDIESLIPKGLSEFTKQQIRYILQMRGMSDKSLRLVLSTFSNIREELGHLQNDMTSLENDKMRLEKDLSFKDTQLKEYEELLASVRANNHQQQQGLQDSSSKCQALEENNLSLRHTLSDMEYRLKELEYCKRNLEQENQNLRMQVSETCTGPMLQAKMDEIGNHYTEMVKNLRMEKDREICRLRSQLNQYHKDVSKREGSCSDFQFKLHELTSLLEEKDSLIKRQSEELSKLRQEIYSSHNQPSTGGRTTITTKKYRTQYPILGLLYDDYEYIPPGSETQTIVIEKTEDKYTCP
B5: sequence looked up; chain SLKVAPKVKATAAPAGAPPQPQDLEFTKLPNGLVIASLENYSPVSRIGLFIKAGSRYEDFSNLGTTHLLRLTSSLTTKGASSFKITRGIEAVGGKLSVTATRENMAYTVECLRGDVDILMEFLLNVTTAPEFRRWEVADLQPQLKIDKAVAFQNPQTHVIENLHAAAYRNALANPLYCPDYRIGKVTSEELHYFVQNHFTSARMALIGLGVSHPVLKQVAEQFLNMRGGLGLSGAKANYRGGEIREQNGDSLVHAAFVAESAVAGSAEANAFSVLQHVLGAGPHVKRGSNTTSHLHQAVAKATQQPFDVSAFNASYSDSGLFGIYTISQATAAGDVIKAAYNQVKTIAQGNLSNTDVQAAKNKLKAGYLMSVESSECFLEEVGSQALVAGSYMPPSTVLQQIDSVANADIINAAKKFVSGQKSMAASGNLGHTPFVDEL

Under “log2 fold change”, `B1 (human AMPD2)` is recorded as -1.36 (CYB5R4 knockout human cells; PP4 interaction, 3xFLAG-PP4C IP-MS; concentration not given; baseline: CYB5R4 KO over parental).
With `UGUUUCUGC (ssRNA)` the Kd was 2.83 µM (U2AF2; sequencing of bound RNA; RNA; motif only).
`human myosin-9` — result for “log2 fold change”: -0.3 (CYB5R4 knockout human cells; PP4 interaction, 3xFLAG-PP4C IP-MS; concentration not given; baseline: CYB5R4 KO over parental).
The mRNA level of `B2 (adiponectin)` is reported as 0.95 ± 0.16 (HUVEC; real-time PCR, measured: CXCL9; 15 µg/mL, 24 h, unit not given, with: TNF-α and IFN-γ; baseline: stimulated untreated).
For `B3`, “log2 fold change” read -1.63 (CYB5R4 knockout human cells; PP4 interaction, 3xFLAG-PP4C IP-MS; concentration not given; baseline: CYB5R4 KO over parental).
`RSDPIPLGM` gave a GFP-positive cells of 0.473% (Jurkat expressing engineered TCR; NFAT-eGFP reporter, fluorescence microscopy; peptide; concentration not given, HLA-A*01:01 on EL4 cells).
With `MTVCNASQRQAHAQATAVSL` the selectivity ratio was 0.97 ± 0.37 (SKOV3; phage binding; peptide; baseline: targeting over control phage).
`YTDPIEDTF` gave a GFP-positive cells of 0.67% (Jurkat NFAT-eGFP expressing engineered TCR; NFAT reporter gene; peptide; concentration not given, HLA-A*01:01 presentation).
`B4 (POF1B)` — result for “log2 fold change”: 1.5 (CYB5R4 knockout human cells; PP4 interaction, 3xFLAG-PP4C IP-MS; concentration not given; baseline: CYB5R4 KO over parental).
With `EPDPLGHEF` the GFP-positive cells was 0.415% (Jurkat expressing engineered TCR; NFAT-eGFP reporter, fluorescence microscopy; peptide; concentration not given, HLA-A*01:01 on EL4 cells).
The Kd of `AUAAUAUUG (ssRNA)` is reported as 5.07 µM (U2AF2; sequencing of bound RNA; RNA; motif only).
With `KEAFWQRCLSVINLMSSKMLQINA` the activity change was 25% (CDK5 with p25; phosphotransferase activity, radiometric; peptide; concentration not given, 10% DMSO, with: histone substrate; baseline: p5-WT peptide).
With `Peginesatide` the phosphorylation was 3.1 fold (UT7/EPO; LC-MS/MS phosphoproteomics (GluC), measured: p38beta (MAPK11) phospho-Tyr182; 10 nM, 15 min; baseline: vehicle).
`B5` — result for “log2 fold change”: -0.98 (CYB5R4 knockout human cells; PP6 interaction, 3xFLAG-PP6C IP-MS; concentration not given; baseline: CYB5R4 KO over parental).
`QSDPIQSSY` gave a GFP-positive cells of 0.604% (Jurkat expressing engineered TCR; NFAT-eGFP reporter, fluorescence microscopy; peptide; concentration not given, HLA-A*01:01 on EL4 cells).
The activity change of `KEAFWDRCLSVGNLMSSKMLQINA` is reported as 35% (CDK5 with p25; phosphotransferase activity, radiometric; peptide; concentration not given, 10% DMSO, with: histone substrate; baseline: p5-WT peptide).
For `epoetin alfa`, the EC50 was 0.000369 µM (UT7/EPO; phosphorylation, agonist, measured: phospho-STAT3; 10 min).
`ELDLIPLTY` has a GFP-positive cells of 0.524% (Jurkat expressing engineered TCR; NFAT-eGFP reporter, fluorescence microscopy; peptide; concentration not given, HLA-A*01:01 on EL4 cells).
Under “responsive cells amplitude”, `pregnenolone sulfate` is recorded as “decreased” (MIN6 and INS1 cells; agonist, calcium microfluorimetry; concentration not given, with: DTT pretreatment; baseline: not DTT-treated).
